{"data": "Published values collected from several papers", "note": "Every numbered part comes from another study and shows a few of its results, in no order."}
{"data": "Sample 1", "target": "Histone acetyltransferase KAT6A, winged helix 2, GST fusion (KAT6A, Homo sapiens, UniProt Q92794, residues 85-181)", "technique": "protein binding microarray", "molecule type": "double-stranded DNA, one strand shown", "sample": "in vitro", "tested at": "not given", "setting": "8-mer, flanks averaged, mean of 2 arrays, mostly near background", "relative to": "not given", "reading": "higher = stronger binding", "Target sequence (chain)": "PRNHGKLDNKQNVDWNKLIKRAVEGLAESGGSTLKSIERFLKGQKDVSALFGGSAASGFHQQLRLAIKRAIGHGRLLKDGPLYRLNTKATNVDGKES"}
{"Sequence": "CTGCTGAC", "E-score": 0.0805}
{"Sequence": "CCACGAAA", "E-score": -0.0102}
{"Sequence": "CATGGTGG", "E-score": -0.0198}
{"Sequence": "CAGACCCC", "E-score": -0.0897}
{"Sequence": "ATCCCATC", "E-score": -0.0818}
{"data": "Sample 2", "target": "RNA binding protein fox-1 homolog 2, RRM domain, GST-SBP tag (RBFOX2, Homo sapiens, UniProt O43251-10, residues 100-194)", "technique": "RNA Bind-n-Seq", "molecule type": "RNA", "sample": "in vitro", "tested at": "365 nM", "setting": "natural RNA segment, single round, ends assumed", "relative to": "no-protein control", "reading": "higher = stronger binding", "Residues (chain)": "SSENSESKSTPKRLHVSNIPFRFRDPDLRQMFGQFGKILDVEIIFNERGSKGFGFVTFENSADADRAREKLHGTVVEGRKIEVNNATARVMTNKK"}
{"Sequence": "GGGAGUUCUACAGUCCGACGAUCGGAGGCUGUUUAUUUCAACCUUUUUAAAAAUUGUGUUUUUUAGUAAAAUGGCUUAUUUUUUCCCAAAGGUGGAAUUUAGCAUUUUGUAAUGAUGAAUAUAAAAAUACCUGUGGAAUUCUCGGGUGCCAA", "RBNS enrichment (R)": 0.569}
{"Sequence": "GGGAGUUCUACAGUCCGACGAUCGUAAUCUACCACCAAGCUUGUGGACUUCACCCCAACAAAAUUGUAAGCGUUGUUAGGUUUUUGUGUAAGAUUCUUGCUGUAGCGUGGAUAGCUGUGAUUGGUGAGUCAACUGGAAUUCUCGGGUGCCAA", "RBNS enrichment (R)": 1.04}
{"Sequence": "GGGAGUUCUACAGUCCGACGAUCUCCCCCAGAAAUCACUCUCCUGUUUACUAUUCCAGAGCUCUAGUUGUAGGCAGCGUGUGGCGUCUCAGAGGCCAGAGCGGCACUAGGGGGCUGAUUUUAUUACCAGGUUAUGGAAUUCUCGGGUGCCAA", "RBNS enrichment (R)": 0.676}
{"Sequence": "GGGAGUUCUACAGUCCGACGAUCUAAUUCAUUCUCAGCCAAUGAAGGUUUGUCUAAGCUGCCUGGGUAUCCACGGGACAAAAACAGCAAACUCCCUCAGACUUUGUCCAUGUAUAAACUUGAAGUGGUUGUGUUGGAAUUCUCGGGUGCCAA", "RBNS enrichment (R)": 0.286}
{"data": "Sample 3", "target": "Centromere-binding protein 1, full length, His-tagged (CBF1, Saccharomyces cerevisiae, UniProt P17106, residues 1-351)", "technique": "competition protein-binding microarray", "molecule type": "double-stranded DNA, one strand shown", "sample": "in vitro", "tested at": "2 µM", "setting": "whole 60-bp probe, lowest competitor level", "added": "Pho4 competitor, 0.05 µM", "reading": "higher = stronger binding", "sequence of UniProt P17106 (whole entry, looked up)": "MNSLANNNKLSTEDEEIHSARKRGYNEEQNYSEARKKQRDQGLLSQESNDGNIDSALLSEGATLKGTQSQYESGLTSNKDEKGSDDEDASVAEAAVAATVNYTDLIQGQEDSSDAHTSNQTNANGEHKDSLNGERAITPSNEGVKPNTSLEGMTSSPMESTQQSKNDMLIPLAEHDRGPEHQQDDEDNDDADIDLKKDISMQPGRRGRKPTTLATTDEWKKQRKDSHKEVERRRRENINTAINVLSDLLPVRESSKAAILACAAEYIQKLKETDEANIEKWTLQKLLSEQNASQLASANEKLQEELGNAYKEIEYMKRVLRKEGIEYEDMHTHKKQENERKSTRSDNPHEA"}
{"Sequence": "TGCGCAACAACTTTTCACGTGGGATTATGTCTAGAAGTCTTGATTCGCTTGACGCTGCTG", "fluorescence intensity [a.u.]": 641}
{"Sequence": "CAGTCCGCCTCCCGTCACGTGATGGAGTAAGAAATTGTCTTGATTCGCTTGACGCTGCTG", "fluorescence intensity [a.u.]": 12200}
{"Sequence": "CCGATGTATTTCTGCCTCGTGCAAAATCTTGCGCCAGTCTTGATTCGCTTGACGCTGCTG", "fluorescence intensity [a.u.]": 215}
{"Sequence": "GTTGGGTTCTACCGTCACGCAATTGCTTCAAGGACCGTCTTGATTCGCTTGACGCTGCTG", "fluorescence intensity [a.u.]": 95.6}
{"data": "Further values, each from its own experiment"}
{"Molecule": "PhoQ, residues 284 288 289 292 302 303 GLASVI", "target": "PhoP, residues 12 14 15 18 19 TPWLV (Escherichia coli, UniProt P23836)", "test": "Sort-seq, refers to: YFP reporter", "system": "E. coli", "setting": "PhoQ-PhoP variant library, added: 10 µM Mg2+", "scale": "relative to: high Mg2+ state, higher = stronger signaling", "measurement": "fold induction", "value": 12.2}
{"note": "Repeated from above (sample 2):"}
{"Sequence": "GGGAGUUCUACAGUCCGACGAUCUCCCCCAGAAAUCACUCUCCUGUUUACUAUUCCAGAGCUCUAGUUGUAGGCAGCGUGUGGCGUCUCAGAGGCCAGAGCGGCACUAGGGGGCUGAUUUUAUUACCAGGUUAUGGAAUUCUCGGGUGCCAA", "RBNS enrichment (R)": 0.676}
{"Sequence": "GGGAGUUCUACAGUCCGACGAUCGUAAUCUACCACCAAGCUUGUGGACUUCACCCCAACAAAAUUGUAAGCGUUGUUAGGUUUUUGUGUAAGAUUCUUGCUGUAGCGUGGAUAGCUGUGAUUGGUGAGUCAACUGGAAUUCUCGGGUGCCAA", "RBNS enrichment (R)": 1.04}
